Results gathered from unrelated publications.
Every numbered part comes from another study and shows a few of its results, in no order.

Block 1 — method: RNA Bind-n-Seq; molecule type: RNA; matrix: in vitro; concentration: 365 nM; reference: no-protein control; reading: higher = stronger binding
Target: RNA binding protein fox-1 homolog 2, RRM domain, GST-SBP tag (RBFOX2, Homo sapiens, UniProt O43251-10, residues 100-194)
Setting: natural RNA segment, single round, ends assumed
All sequences stand within: GGGAGUUCUACAGUCCGACGAUC … UGGAAUUCUCGGGUGCCAA
Residues (chain): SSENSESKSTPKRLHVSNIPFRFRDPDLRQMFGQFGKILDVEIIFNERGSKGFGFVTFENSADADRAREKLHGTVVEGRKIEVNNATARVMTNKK
| Sequence | RBNS enrichment (R) |
| --- | --- |
| UUUCUCACUGUGCUGCUGAGGUUCUGACCUGGUGUGUCUGACAUUGCAUCAGGCUUUGCAGAACAAAUGUGAUUCACUUAAACGUUCACACACAGCAACACUGAAAUCCU | 0.853 |
| CCUUGACAUGAGGACCAGCAAGUUUAUUCUUUUCAUUUUCAGUGAUGUUGGGAAUGGACUGGGUUUUAAAAGGGAGCUUGAAGAGGGAAUGUUUGACAGUCACAGAAGGU | 1.04 |
| AUAGGUGGAAUAUGACUGCUCAGAAAGUUAAACUUUAAUUUAUUGAAUUGUACAUAGCUGGAUGUAAAUAGGAGCGUGUCUGUCAGGUUUUAUUCUUGUUUUGCCUUUUG | 0.497 |
| GUCAGGAGGGCUCAGCCCAGGAGCAGGUGGCCCUGGGGUGCAUGUCAGCCAGGGGCCAGUCAGCCCAGCAGUCUCCCCUGCUCCCUGACAUGAGUUCCUAAAGGGCACUG | 2.25 |
| ACUUUAAAGCGCUCCAGCCAACAGCUGUAGGUGAGACCUGGGAGGGGAGGAACUGCACCAGCGCACAAUCCUAAGAGCCUCGGCUCCUUGCCCAUUCACUUCAGUCUGCA | 2.78 |
| GAAUUUAUAAAAUGUGUAUUGCUCAAAAAAAAAAAAAAGGUUUGCAAAUAUUUGCACAUAAGAUCUUCACUGUUCAUUUCCAGUGAGUGUGUUUGCAGACUAAACACAAG | 1.02 |
| ACUUGUUGUGGCUCUUAUUUCUGAAUUCAAAGCUUGUGAAAAAAUAAAGAAAAUGAACUGCCCACUGCCUGACUAGGGCACUUUCAUUUCAGUGGUGGUGUCUGGAUUGG | 12.1 |
| CCAGGGCCCCACCCUGGGCUGGACAAUCAGAUCCCAAAGGAAUGCCAAAGGGGACUCGGUUGGGAGAGCCGCUUAGGGGCCAGACCUGGGUCCCCCUGCAGGUCCCCAGG | 0.764 |
| CAUGCAUCCUAGCCAGUGAGUGCUACAUCCUUUGCAAGUGGAGUUACUGGCCUACCCUUACCCCAUGCAUUCUUCCUGUCUGCACUGCCUGGGCCAAGGGGCAGAAACAC | 1.84 |
| AGCCCUAAGUCUCCUUCUUUAUUAUUAGGAAAACAACAACAACAACAAACAAAAAAAUGGCGUCAUGAAUAUGAACAGCAUUGUCAGAUGAAUUAGUUGAAGUGGUUUUU | 0.332 |
| UUAAGUGUUCUGUGGCUGAUUUACUAACAGUAACUGCCAUUUUUUGUCUGUGAUAACAGAGUGAUUUGUAAAACAGUGGUUGUUUUUUCAUUGUGUUUUCUUCGUGGAUU | 0.36 |
| CUUUUAGUGUUUGUACUGCUGCUGGUCAGAAUGUUGUUAACUGCUCAGUUCUAGGAAGCAGGAGAGCUCGCUUGUGCAGUGUCCCACACAGCAGGGCUGAGGGGCCUAGG | 0.953 |

Block 2 — method: protein binding microarray; molecule type: double-stranded DNA, one strand shown; matrix: in vitro; concentration: not given; reference: not given; reading: higher = stronger binding
Target: Histone acetyltransferase KAT6A, both winged helices, GST fusion (KAT6A, Homo sapiens, UniProt Q92794, residues 1-181)
Setting: 8-mer, flanks averaged, mean of 2 arrays, mostly near background
Construct (chain): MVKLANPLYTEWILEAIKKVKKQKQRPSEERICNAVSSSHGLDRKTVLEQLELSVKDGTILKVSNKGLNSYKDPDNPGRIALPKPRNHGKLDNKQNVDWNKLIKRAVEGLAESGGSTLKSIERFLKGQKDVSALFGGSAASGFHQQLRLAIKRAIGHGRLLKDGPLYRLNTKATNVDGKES
| Sequence | E-score |
| --- | --- |
| ATCGTAGC | -0.0391 |
| TAGTCGAA | -0.0395 |
| GTCTTGTA | -0.0461 |
| AGTACCCA | -0.101 |
| CAGTCACC | -0.0933 |
| GTTCACTA | 0.0467 |
| CTCGTAGC | -0.0445 |
| ACATATAG | -0.00725 |
| GTAGAGCA | -0.196 |
| GTAAAGGA | -0.123 |
| ATCGTCTA | -0.0523 |
| CCATACGC | 0.00211 |
| ACACGTGA | -0.0351 |
| GGGACCGA | 0.0322 |
| GATCGCGA | 0.244 |
| TAAGGCTA | -0.211 |
| CCGTACGC | 0.366 |
| AAAAGCCG | 0.299 |
| GTTTTGAA | -0.0915 |
| CCTTCCCA | -0.165 |
| ACCGACCT | -0.00029 |
| AGCGGAAG | 0.179 |
| CGGAACGC | 0.295 |
| TAGCGCCA | 0.229 |
| ACTTTTGG | -0.0102 |

Block 3 — method: protein-binding microarray; molecule type: double-stranded DNA, one strand shown; matrix: in vitro; concentration: 250 nM; setting: 60-bp whole probe; added: salmon DNA 0.4 mg/ml; reference: random background probes; reading: higher = stronger binding; all sequences stand within: GCCTAGCAC … GTCTTGATTCGCTTGACGCTGCTG
Target: Interferon regulatory factor 7, full length, phosphomimetic (IRF7, Homo sapiens, UniProt Q92985, residues 1-503, S101K/S471D/S472D/S475D/S476D/S477D/S483D/S484D/S487D)
UniProt Q92985, sequence (whole entry, unmodified, looked up): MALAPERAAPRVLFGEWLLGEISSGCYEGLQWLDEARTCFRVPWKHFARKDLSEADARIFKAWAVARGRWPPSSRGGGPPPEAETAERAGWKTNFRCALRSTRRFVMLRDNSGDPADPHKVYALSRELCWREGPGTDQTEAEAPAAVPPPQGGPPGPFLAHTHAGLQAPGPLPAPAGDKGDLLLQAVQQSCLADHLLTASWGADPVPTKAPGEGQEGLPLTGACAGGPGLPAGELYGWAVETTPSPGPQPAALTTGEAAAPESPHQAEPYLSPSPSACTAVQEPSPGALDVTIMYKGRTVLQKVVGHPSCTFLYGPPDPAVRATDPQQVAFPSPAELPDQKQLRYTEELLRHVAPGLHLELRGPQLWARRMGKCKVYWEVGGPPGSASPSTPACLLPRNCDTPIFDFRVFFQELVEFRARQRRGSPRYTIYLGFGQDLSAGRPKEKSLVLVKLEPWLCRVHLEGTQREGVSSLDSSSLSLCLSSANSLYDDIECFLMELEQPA
| Sequence | log fluorescence [z-score] |
| --- | --- |
| TTAGGTTTCGACTTTCGGATAGTGCTA | 11.7 |
| TTAGGTTCGGGTTTCGGTTAGTGCTAG | 10.2 |
| TTAGGTATCCTACTGTTTTAGTGCTAG | 0.291 |
| TTAAAACTGGGGTTTCGATTAGTGCTA | 6.9 |
| CTCGGGACAGGCACTCTACGGTGCTAG | -0.727 |
| TTACCTCTCACGCATCTGAAAGTGCTA | 0.486 |
| TTAGGTATCCTTCTCCGTTAGTGCTAG | 0.599 |
| GACGGTATCGTCTTTCGGGACGTGCTA | 0.294 |
| TTAGTTTTCCTTTTCCTTTAGTGCTAG | 5.61 |
| TCATTTTTCTAACCCATACTGTGCTAG | 1.32 |
| TTAGGTTTCGCTCTCGGTTAGTGCTAG | 6.18 |
| GACGATTTCGGGACTGGAGAGGTGCTA | 0.0422 |
| TTAGGTATCGTCTATCGGTTAGTGCTA | 0.113 |
| CACGGTTTCGGGTATCGGGACGTGCTA | 7.78 |
| TCAAAGTTCTTTTTTTCACTGTGCTAG | 0.558 |
| TTTGGTTTCGACACTGGGTTAGTGCTA | 4.7 |
| GAGGATCTCAGTCTCGAGACGTGCTAG | 0.222 |
| GTATTTGTCCCTATTTAAGAGTGCTAG | 3.79 |
| CTTTCTTTACTTCACTCTCTGTGCTAG | 2.01 |
| TCAGATTTCGATTACAAACTGTGCTAG | 2.28 |
| GACTGTCTCCTTATCCTGACGTGCTAG | 0.0127 |
| TTAGGTATCCTACTGGTTTAGTGCTAG | -0.0724 |
| GACGGACTGGACTTTCGGGAAGTGCTA | -0.659 |
| ATAGAACTGAGACTGGATTAGTGCTAG | -0.289 |
| TCAAGTCTCAACCCCCAAACTGTGCTA | -0.187 |

Block 4 — method: RNA Bind-n-Seq; molecule type: RNA; matrix: in vitro; concentration: not given; reference: input RNA pool; reading: higher = stronger binding
Target: RING finger protein unkempt homolog, zinc fingers 1-6, GST-SBP tag (UNK, Homo sapiens, UniProt Q9C0B0, residues 30-357)
Setting: RNA with constant flanks, human and mouse sites, ends assumed
All sequences stand within: GGGAGUUCUACAGUCCGACGAUC … CAACAGAGGAUUGAGCAUCA
Target sequence (chain): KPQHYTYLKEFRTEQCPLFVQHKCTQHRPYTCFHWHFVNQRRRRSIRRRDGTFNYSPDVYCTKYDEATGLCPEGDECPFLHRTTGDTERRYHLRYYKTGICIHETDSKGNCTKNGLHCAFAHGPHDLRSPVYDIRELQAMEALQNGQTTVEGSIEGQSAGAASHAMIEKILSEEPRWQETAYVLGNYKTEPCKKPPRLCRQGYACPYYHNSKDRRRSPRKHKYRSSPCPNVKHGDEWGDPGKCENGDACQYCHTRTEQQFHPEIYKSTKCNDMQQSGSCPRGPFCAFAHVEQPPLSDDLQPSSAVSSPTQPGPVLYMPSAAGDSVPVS
| Sequence | bound/input enrichment |
| --- | --- |
| GAACAGGAGCAGCAUAGGCUGUUUGAGCUUUGGGGAAAUGAACUUUGCUUUUUAUAUUUAACUAGGAUACUUUUAUAUGAUGGGUGCUUUGAGUGUGAAUGCAGCAGGCUCUCUUGUUUC | 63.1 ratio |
| CAGGGCUUAUAUUGUGUGGCUAUCCGUGACUUCAAACAGGCAGCAGAGCUCUUUCUCGACACUGUUUCUACGUUUACAUCGUAUGAGCUCAUGGAUUACAAGACAUUUGUGACUUACACU | 0.0928 ratio |
| UAGCUUUAUGAAUUGCUUUGGUUUCUGUUUUUGCAUACUCUCAAUUUCUUUGAACCCCACCCCCACCCCACCCCCACUUACAUGCAUGCGAUCAGACAGGCCACUAAGGUAGAUUCUGCA | 1.32 ratio |
| UGUUUCUCAAGGUUUACUCAGUUAACAGAUCACCAAAUUCAGCAGCUCAUUUUCACAGCUUGUAACCCUUGGUAAUAAUGUUGGAUGCCGGGGCCUAUGCAUGUUGACAUUCUGGUUGUC | 0.126 ratio |
| CAACUUGGGGAAGAUAUCCGACGAAUUCCCAUUCAUAAUGAAGACAUUACUUACGAUGAAUUAGUGCUAAUGAUGCAGCGAGUAUUCAGAGGAAAGCUUCUGAGUAAUGAUGAAGUUACA | 0.786 ratio |
| GAUGACAAUCCAUUUGCAGAGUACAUGUGGAUGGAAAAUGAAGAAGAAUUCAACAGACAAAUAGAAGAGGAGUUAUGGGAAGAAGAAUUUAUUGAACGCUGUUUCCAAGAAAUGCUGGAA | 0.928 ratio |
| UGUGCGGCCGCAGGCGGAGCAGGGCGGCCCGGGCGGCGGUGGGGACAACGGUUUCCCUUUGAAGGGGACGGACAAAGCCCGAGUGACCAGCGGCGGCGGGGAGGACUAGUCCCCGGGCAG | 0.326 ratio |
| UAGGCAAAAUACUUUUCAGGCCUUUUUAAAAAAUUCAUUACAGCAAACAGCUGGGGAAGGACAUGCAGUCCUCCCCCAGCUCUGUCAAUGACUAUGACCUUGGCCAAAGCACUUCACUGC | 0.228 ratio |
| GGAGGGCCGCCGGCUGUGUUGCUGCCGCGGGCGGAGGAGGCGCUGCCGGUUCUCUGAGUUUCACCAGUAAUGCCACUCAGUUGCCAAUAUCAAGCAAGCGCAUAUAAGACACUUGUAAUC | 0.235 ratio |
| CUUGCACGAAUUUUGUAUAUUUCAAAUAUUUCUGUAAAGGUUUCUUCUUUUCUGUUAGAGUGUGGUGUUAAGCCAGAGUCAGUGGUUUGUGUUCUCAUUAAAAUGUUUGUUUAAAUCCUA | 0.568 ratio |
| UUGUUGGGCAAGGUGGGGUCACAGGACAUGGGACUAGUAAGCAUUUUACUGUUUACUAUAUUUGUCUUUUUAUAAACAGUAUCUCCCAAAAUGUGAUUAGAAGGCUACCAAGCCUGUAUU | 0.364 ratio |

For quick reference, copied from above (block 2):
| Sequence | E-score |
| --- | --- |
| ACATATAG | -0.00725 |
| GTAGAGCA | -0.196 |
| GTAAAGGA | -0.123 |
| ATCGTCTA | -0.0523 |
| CCATACGC | 0.00211 |
